Results pooled from the literature.
A part holds a random share of what one study measured.

Sample 1
Target: Sal-like protein 4, full length isoform B (SALL4, Homo sapiens, UniProt Q9UJQ4-2, residues 1-616)
Technique: universal PBM
Form: double-stranded DNA, one strand shown
Sample: in vitro
Concentration: not given
Setting: 8-mer, flanks averaged, mean of replicates
Direction: higher = stronger binding
Quantity: E-score
Residues (chain): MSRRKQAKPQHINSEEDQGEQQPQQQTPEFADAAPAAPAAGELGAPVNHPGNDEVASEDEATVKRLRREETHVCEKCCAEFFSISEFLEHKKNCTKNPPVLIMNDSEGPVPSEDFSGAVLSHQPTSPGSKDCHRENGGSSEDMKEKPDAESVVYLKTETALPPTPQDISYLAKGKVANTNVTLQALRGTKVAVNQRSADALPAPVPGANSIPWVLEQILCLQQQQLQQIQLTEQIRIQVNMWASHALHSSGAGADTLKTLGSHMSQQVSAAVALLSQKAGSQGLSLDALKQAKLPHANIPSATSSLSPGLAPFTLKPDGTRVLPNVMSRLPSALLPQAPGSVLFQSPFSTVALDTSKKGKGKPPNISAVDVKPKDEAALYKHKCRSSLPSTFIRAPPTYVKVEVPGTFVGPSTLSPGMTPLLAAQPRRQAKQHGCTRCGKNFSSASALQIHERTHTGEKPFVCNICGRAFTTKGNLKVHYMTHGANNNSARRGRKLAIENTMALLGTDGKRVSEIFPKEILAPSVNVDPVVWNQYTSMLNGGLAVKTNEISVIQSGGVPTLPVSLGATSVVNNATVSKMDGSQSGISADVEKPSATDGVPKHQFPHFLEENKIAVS
AACGGGGA: -0.123
GCTCGCAA: -0.116
CTCTTACA: 0.0984
AAGCTGAG: 0.0032
ATTAACTA: 0.28
GGCCTGAA: -0.226

Sample 2
Target: Ras GTPase-activating protein-binding protein 1, RRM domain (G3BP1, Homo sapiens, UniProt Q13283)
Sequence of UniProt Q13283 (whole entry, looked up): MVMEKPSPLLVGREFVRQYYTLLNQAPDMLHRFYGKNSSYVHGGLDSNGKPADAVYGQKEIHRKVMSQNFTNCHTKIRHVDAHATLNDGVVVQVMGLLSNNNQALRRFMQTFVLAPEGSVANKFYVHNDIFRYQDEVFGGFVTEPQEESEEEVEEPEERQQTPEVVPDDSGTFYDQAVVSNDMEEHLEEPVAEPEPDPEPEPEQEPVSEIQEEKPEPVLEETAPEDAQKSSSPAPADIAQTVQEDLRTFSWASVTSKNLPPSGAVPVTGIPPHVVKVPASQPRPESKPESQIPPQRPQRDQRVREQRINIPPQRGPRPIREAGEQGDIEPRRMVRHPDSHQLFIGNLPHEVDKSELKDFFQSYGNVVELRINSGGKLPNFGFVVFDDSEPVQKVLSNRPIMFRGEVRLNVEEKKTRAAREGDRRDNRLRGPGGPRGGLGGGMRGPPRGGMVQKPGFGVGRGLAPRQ
Technique: RNA Bind-n-Seq
Form: RNA
Sample: in vitro
Concentration: 1 µM
Setting: whole 134-nt RNA, ends assumed
Added: 150 mM KCl
Relative to: input library
Direction: higher = stronger binding
Quantity: log2 enrichment
GGGAGUUCUACAGUCCGACGAUCCCUGUGCUACACAUCGUAUGUACCGAAUCGGGGUUUUUGGGGAAAGGGGUUUUUUUGGGGAAAGUAUUAUGUUACGCCGUUCGGAUCUGCUGGAAUUCUCGGGUGUCAAGG: 0.61
GGGAGUUCUACAGUCCGACGAUCUGGCCCUGGUGGCACGCGGGGAGGAAGAGGUGGCCUCAUGGAUCGUGGUGGUCCCGGUGGAAUGUUCAGAGGUGGCCGUGGUGGAGACAGUGGAAUUCUCGGGUGUCAAGG: 0.884
GGGAGUUCUACAGUCCGACGAUCCCUCAAGUCCUGUGCUACACAUCGUAUGUACCGAAUCGGGGAGGGAGGAGGGAAAGUAUUAUGUUACGCCGUUCGGAUCUGCACUUCCAGUGGAAUUCUCGGGUGUCAAGG: 0.00321

Single results of other studies
UNK zinc fingers 1-6, GST-SBP tag: RING finger protein unkempt homolog, zinc fingers 1-6, GST-SBP tag (UNK, Homo sapiens, UniProt Q9C0B0, residues 30-357)
Sequence of UniProt Q9C0B0 (30-357, looked up): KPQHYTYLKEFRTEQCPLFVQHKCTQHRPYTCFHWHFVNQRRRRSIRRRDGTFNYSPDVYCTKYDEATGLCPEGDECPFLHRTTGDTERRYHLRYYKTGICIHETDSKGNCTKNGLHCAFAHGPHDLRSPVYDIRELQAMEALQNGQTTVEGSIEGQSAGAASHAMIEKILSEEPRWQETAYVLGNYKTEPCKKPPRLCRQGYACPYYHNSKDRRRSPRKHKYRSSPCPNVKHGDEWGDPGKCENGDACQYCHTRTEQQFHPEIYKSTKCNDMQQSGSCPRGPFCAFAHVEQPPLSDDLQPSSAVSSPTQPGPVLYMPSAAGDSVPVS
GGGAGUUCUACAGUCCGACGAUCUAUUUUUUAGAACAGCUAUUUGAUUUCUUCUCAAAGUCACUGCUGCCUUCUGAGUUGCCGUCCGCGCCUUCUCCAGCUUCCUGCAGCAUGACAGAAGAGAGAUACAGCAGUUGUUUCAAACAACAGAGGAUUGAGCAUCA — bound/input enrichment (UNK zinc fingers 1-6, GST-SBP tag; RNA Bind-n-Seq; RNA, in vitro; not given, RNA with constant flanks, ends assumed; relative to: input RNA pool, higher = stronger binding): 0.125 ratio
PhoQ, residues 284 288 289 292 302 303 TGYLSA — fold induction (PhoP, residues 12 14 15 18 19 NFCKL (Escherichia coli, UniProt P23836); Sort-seq, measured: YFP reporter; E. coli; PhoQ-PhoP variant library, added: 10 µM Mg2+; relative to: high Mg2+ state, higher = stronger signaling): 5.49
GGGAGUUCUACAGUCCGACGAUCGUGGGAAAAACAACCUGGCAAAACAAAGAAUCUAAAGGAGAGACAGGGAAGAGAAGUAAGGAAGGUCAUAGUUUGGAGAUGGAGAAUGAGAAUCUUGUAGAAAAUGGUGCAGACUCCGAUCAACAGAGGAUUGAGCAUCA — bound/input enrichment (UNK zinc fingers 1-6, GST-SBP tag; RNA Bind-n-Seq; RNA, in vitro; not given, RNA with constant flanks, human and mouse sites, ends assumed; relative to: input RNA pool, higher = stronger binding): 0.861 ratio
GGGAGUUCUACAGUCCGACGAUCAUGAAAAGACUGUGACCUCCUCUGGGGUUUGGUGGCAAGUCUGGGCUGGCAGAGAUGGGACCGCUUCAGGUUUUGCACCGGCACUUUGAUGACACUCUCCUCUGGUGAUGUUUUAUUUACCAACAGAGGAUUGAGCAUCA — bound/input enrichment (UNK zinc fingers 1-6, GST-SBP tag; RNA Bind-n-Seq; RNA, in vitro; not given, RNA with constant flanks, ends assumed; relative to: input RNA pool, higher = stronger binding): 0.388 ratio
GGGAGUUCUACAGUCCGACGAUCGGCUCAGUGAAGAAGGUCAACGAGUCCUCACUGAACUGGCCUCAGUUGGAGAAUAUUGGCAACUUUAUUAAAGCUAUUCAGGCUUAUGGUAUGAAGCCACAUGACAUAUUCGAAGCAAAUCAACAGAGGAUUGAGCAUCA — bound/input enrichment (UNK zinc fingers 1-6, GST-SBP tag; RNA Bind-n-Seq; RNA, in vitro; not given, RNA with constant flanks, human and mouse sites, ends assumed; relative to: input RNA pool, higher = stronger binding): 0.0965 ratio

Repeated from above (sample 1):
CTCTTACA: 0.0984
AAGCTGAG: 0.0032
